Measurements from different studies.
Compare with care: the assays were run in different laboratories. ± gives the spread as reported. In brackets after ≈: the same amount, converted by molar mass.

The MIC of `C[C@@H](c1ccn(Cc2ccc(F)c(Cl)c2)n1)[C@](O)(Cn1cnnn1)c1ccc(F)cc1F` is reported as less than 0.008 µg/mL (Candida tropicalis; growth, broth microdilution; 2718; 24 h, 30 °C, ≥50% inhibition).
`Cc1ccc2nc(-c3ccccc3)c(CNc3cccc(C(F)(F)F)c3)n2c1`: activity “inactive” (Trypanosoma cruzi; parasite growth; Tulahuen beta-galactosidase; concentration not given).
`CN(C)c1cc(CNC2CCCCC2)c(O)c2c1C[C@H]1C[C@H]3[C@H](N(C)C)C(O)=C(C(N)=O)C(=O)[C@@]3(O)C(O)=C1C2=O` gave an MIC of 0.5 µg/mL (≈ 0.879 µM) (Streptococcus pneumoniae; microbial growth, broth dilution).
`O=C(c1cc([N+](=O)[O-])ccc1Cl)N1CCN(c2cccc(Cl)c2)CC1` gave an IC50 of greater than 200000 nM (Saccharomyces cerevisiae; cell growth; wild type).
For `C=C(C)[C@@H]1CC[C@]2(C(=O)NC(CO)Cc3ccccc3)CC[C@]3(C)[C@H](CC[C@@H]4[C@@]5(C)CCCNC(C)(C)[C@@H]5CC[C@]43C)[C@@H]12` (stereo partly shown), the EC90 was greater than 1200 nM (Human cytomegalovirus; cytopathic effect; HFF, AD169).
`Nc1ncnc2c1c(-c1ccc(Cl)c(F)c1)cn2[C@@H]1O[C@H](CO)[C@@H](O)[C@H]1O` has an EC50 of 120 ± 9 nM (Trichomonas vaginalis; resorufin; G3, metronidazole-sensitive; 24 h + 2 h, 2% O2).
`C[C@@H](c1ccn(Cc2cc(F)ccc2F)n1)[C@](O)(Cn1cnnn1)c1ccc(F)cc1F` gave an MIC of less than 0.008 µg/mL (Candida tropicalis; growth, broth microdilution; 2718; 24 h, 30 °C, ≥50% inhibition).
The MIC of `CN(Cc1cc(N(C)C)c2c(c1O)C(=O)C1=C(O)[C@]3(O)C(=O)C(C(N)=O)=C(O)[C@@H](N(C)C)[C@@H]3C[C@@H]1C2)CC(C)(C)C` is reported as 0.25 µg/mL (≈ 0.438 µM) (Streptococcus pneumoniae; microbial growth, broth dilution).
The EC50 of `Cc1ccc2nc(-c3ccc(F)c(F)c3)c(CN3CCN(c4cccc(C(F)(F)F)c4)CC3)n2c1` is reported as 1600 nM (Trypanosoma cruzi; 3T3 host cells, Tulahuen beta-galactosidase; 6 days).
`COc1ccc(Nc2c(C#N)cnc3ccc(Cl)cc23)cc1` gave an inhibition of 64% (Trypanosoma cruzi; intracellular amastigote growth; mouse cardiomyocytes, Y, amastigote; 10 µM, 72 h).
For `N#CCC(=O)NNC(=S)Nc1ccc(Cl)c(Cl)c1`, mRNA level read “inhibited” (Saccharomyces cerevisiae; inhibitor, measured: PDR5, SNQ2; concentration not given, together with: ketoconazole 40 µM).
For `CN(C)c1cc(CNCCC(C)(C)C)c(O)c2c1C[C@H]1C[C@H]3[C@H](N(C)C)C(O)=C(C(N)=O)C(=O)[C@@]3(O)C(O)=C1C2=O`, the MIC increase was no less than 2 dilutions (Streptococcus pneumoniae; 157E; together with: mouse serum; reference: no serum).
`CC[C@H](C)[C@H](NC(=O)[C@H](CCCN)NC(=O)[C@H](CC(N)=O)NC(=O)[C@H](Cc1c[nH]c2ccccc12)NC(=O)[C@H](Cc1ccccc1)NC(=O)[C@H](CCCN)NC(=O)[C@H](CCCNC(=N)N)NC(=O)[C@H](CC(C)C)NC(=O)[C@H](Cc1c[nH]c2ccccc12)NC(=O)[C@H](CCCN)NC(=O)[C@H](CCCNC(=N)N)NC(=O)[C@H](CC(C)C)NC(=O)CNC(C)=O)C(=O)N[C@@H](CCCN)C(=O)N[C@@H](CCCNC(=N)N)C(N)=O`: “geometric mean MIC” 4.42 µM (all bacteria tested).
`CNCc1ccc2c(c1)N(C(=O)OCc1ccccc1)[C@H](CNC(=N)N)[C@H]2NC(=O)C(=O)Nc1ccc(Cl)c(F)c1` has an IC50 of greater than 300000 nM (amphotropic murine leukemia virus; viral infection; Cf2Th-CD4/CCR5).
With `CC(C)CNCc1cc(N(C)C)c2c(c1O)C(=O)C1=C(O)[C@]3(O)C(=O)C(C(N)=O)=C(O)[C@@H](N(C)C)[C@@H]3C[C@@H]1C2` the MIC was 0.25 µg/mL (≈ 0.461 µM) (Streptococcus pneumoniae; 157E; 50% mouse serum).
The IC50 of `CCCCCc1ccc2c(c1O)C(c1ccc(OC)c(OC)c1OC)OC2=O` (stereo not shown) is reported as 7790 nM (Naegleria fowleri; parasite growth, resazurin; 48 h).
